Measurements collected from several papers.
“And” joins repeats or separate records; there may be more than shown. Numbers after ± are the reported error.

`CC[C@H](C)[C@H](NC(=O)[C@H](CCCCN)NC(=O)[C@H](Cc1ccccc1)NC(=O)C[C@H](CC(C)C)NC(=O)CN)C(=O)N[C@H](CC(=O)N[C@@H](CCCCN)C(=O)N[C@@H](CCCCN)C(=O)N[C@H](CC(=O)N[C@@H](C)C(=O)N[C@@H](CCCCN)C(=O)N[C@@H](CO)C(=O)N[C@H](CC(N)=O)Cc1ccccc1)[C@@H](C)CC)[C@@H](C)CC` gave an IC50 of 26.4 µg/mL (NIH 3T3; cytotoxicity).
For `Cc1cc(C(=O)N2CCNCCNCCNCC2)c(O)c(C(=O)N2CCNCCNCCNCC2)c1`, the IC50 was > 10000 µM (WI-38; cell growth or viability, MTT; 24 h).
The IC50 of `CC[C@H](C)[C@H](NC(=O)C[C@H](CCCCN)NC(=O)[C@H](Cc1ccccc1)NC(=O)C[C@H](CC(C)C)NC(=O)CN)C(=O)N[C@H](C(=O)N[C@@H](CCCCN)CC(=O)N[C@@H](CCCCN)C(=O)N[C@H](CC(=O)N[C@@H](CC(C)C)C(=O)N[C@@H](CCCCN)CC(=O)N[C@@H](CC(C)C)C(=O)N[C@@H](Cc1ccccc1)C(N)=O)[C@@H](C)CC)[C@@H](C)CC` is reported as 14.7 µg/mL (NIH 3T3; cytotoxicity).
For `CC(C)c1ccc(N(C)c2ccc3c(c2)OCC[C@H]3CNc2cnccc2C(=O)O)cc1`, the IC50 was 0.00716 µM (NCI-H1092; cell growth or viability, ATP luminescence; 7 days).
`CC[C@H](C)[C@H](NC(=O)C[C@H](CCCCN)NC(=O)[C@H](Cc1ccccc1)NC(=O)[C@H]1CCC[C@@H]1NC(=O)CN)C(=O)N[C@H](C(=O)N[C@@H](CCCCN)CC(=O)N[C@@H](CCCCN)C(=O)N[C@H]1CCC[C@@H]1C(=O)N[C@@H](CC(C)C)C(=O)N[C@@H](CCCCN)CC(=O)N[C@@H](CC(C)C)C(=O)N[C@@H](Cc1ccccc1)C(N)=O)[C@@H](C)CC` has an IC50 of 18.7 µg/mL (NIH 3T3; cytotoxicity).
`COc1ccc(C(O)=CC(=O)c2ccc(C(C)(C)C)cc2)cc1.[Ru+2].c1ccc(-c2cccc(-c3ccccn3)n2)nc1.c1cnccn1` gave an IC50 of 0.55 µM (HL-60; cytotoxicity; dark).
With `Cc1cc(C)cc(COc2cc3c(cc2OCc2cc(C)cc(C)c2)[C@@H]2C[C@](O)(Cc4cn(Cc5ccc(F)cc5)nn4)C[C@H](C)N2CC3)c1` (single isomer, unassigned) the IC50 was 0.387 µM (ASPC1; cell growth or viability, MTT).
`C=CC(=O)N1CCCC(n2c(=O)c3ncccc3n(Cc3ccc(Oc4ccccc4)cc3)c2=O)C1` (stereo not shown) has an IC50 of 0.5 µM (SU-DHL-6; cell growth or viability, MTT; 72 h).
With `COc1cc(-c2cn(C)c(=O)c3cnccc23)c(OC)cc1CN(C)C` the IC50 was 6.6 µM (EOL1; cell growth or viability, ATP luminescence).
With `Cn1ncc(-c2ccc3c(=O)[nH]nc(CN)c3c2)c1-c1c(F)c(Cl)cc(OC2CC2)c1C#N` the IC50 was 0.02 µM (HuP-T4; cell viability, inhibitor, CellTiter-Glo; 120 h, baseline-subtracted).
`CC1C(CO)CCC2(CO)CCC3(C)C(=CCC4C(C)(CCC(=O)O)C(C(C)(O)CO)CCC43C)C12` (stereo not shown) gave an IC50 of > 100 µM (RAW264.7; NO release, inhibitor, Griess; LPS-stimulated).
For `CCOc1cncc(-c2ccc(NC(=O)C3(c4ccnc(NS(=O)(=O)C5CC5)n4)CCOCC3)nc2)n1`, the IC50 was 0.015 µM (OCI-Ly18; cell growth or viability, ATP luminescence; 72 h).
`CN(C)CCOc1cc(NC(=O)c2cccc(C(=O)Nc3cc(OCCN(C)C)c4ccccc4n3)n2)nc2ccccc12` has an IC50 of 2.1 µM (WI-38; cell growth or viability, ATP luminescence; 72 h).
For `CC(C)=CCc1c(OCC2OC2(C)C)ccc2ccc(=O)oc12` (stereo not shown), the IC50 was > 100 µM (COLO 205; cell growth or viability, MTT; 24 h).
`NC(=O)c1ccc(-c2ccccc2Cl)c2c3c([nH]c12)CCC(N)C3` (stereo not shown) gave an IC50 of 0.0318 µM (A-375; cell growth or viability; 96 h).
For `CN(C)C(=S)NN=C(c1ccccn1)c1ccccn1`, the IC50 was 25.1 µM (MCF-10A; cell growth or viability, MTT; 48 h).
With `CNS(=O)(=O)Nc1nccc(Cc2c(C)c3ccc(Oc4ncccc4F)cc3oc2=O)c1F` the IC50 was > 1 µM (MDA-MB-361; cell viability; 7 days).
`CN1CCC(N[C@H]2CCc3[nH]c4c(C(N)=O)ccc(-c5ccccc5Cl)c4c3C2)CC1` has an IC50 of 2.25 µM (A-375; cell growth or viability).
With `NCc1ccc2c(c1)CN(C1CCC(=O)NC1=O)C2=O` (stereo not shown) the IC50 was 0.0733 µM and < 0.1 µM (Hep3B; cell growth or viability, ATP luminescence; 72 h).
For `CC(=O)OC[C@H]1O[C@@H](Oc2ccc(C#[C][Pt+])cc2)[C@H](OC(C)=O)[C@@H](OC(C)=O)[C@@H]1OC(C)=O.O=S(=O)([O-])C(F)(F)F.c1ccc(-c2cccc(-c3ccccn3)n2)nc1`, the IC50 was > 100 µM (PLC; cell growth or viability; 48 h).
`CC[C@H](C)[C@H](NC(=O)[C@H](CCCCN)NC(=O)C[C@H](Cc1ccccc1)NC(=O)[C@H](CC(C)C)NC(=O)CN)C(=O)N[C@H](CC(=O)N[C@@H](CCCCN)C(=O)N[C@@H](CCCCN)C(=O)N[C@H](CC(=O)N[C@@H](CC(C)C)C(=O)N[C@@H](CCCCN)C(=O)N[C@@H](CO)CC(=O)N[C@@H](Cc1ccccc1)C(N)=O)[C@@H](C)CC)[C@@H](C)CC` gave an IC50 of 17.9 µg/mL (NIH 3T3; cytotoxicity).
With `CCn1cc(-c2cccc(C(F)(F)F)c2)c2sc(C(=N)NC3CCS(=O)(=O)CC3)cc2c1=O` the IC50 was 6.25 µM (EOL1; cell growth or viability, ATP luminescence).
`CCNC(=S)NN=Cc1c2ccccc2cc2ccccc12.Cc1ccc(C(C)C)cc1.[Cl-].[Cl-].[Ru+2]` has an IC50 of 235 ± 6 µM (Caco-2; cytotoxicity, MTS; 48 h).
The IC50 of `CC#CC(=O)N1CCC[C@H]1c1nc(-c2ccc(C(=O)Nc3ccccn3)cc2)c2c(N)nccn12` is reported as 0.00724 µM (Ramos; IP1 production, HTRF; 4 h, added: anti-IgM).
For `CC(C)=CC1OC(C)(C)C2C=C3C(=O)C(Cl)=CC(O)C3C3C(O)C4OC4C(=O)C132` (stereo not shown), the IC50 was 1.4 µM (SU-DHL-1; cell growth or viability, MTS).
With `CC[C@H](C)[C@H](NC(=O)[C@H](CC(=O)O)NC(=O)[C@H](Cc1ccccc1)NC(=O)[C@H]1CCC[C@@H]1NC(=O)CN)C(=O)N[C@H](CC(=O)N[C@@H](CCCCN)C(=O)N[C@@H](CCCCN)C(=O)N[C@H]1CCC[C@@H]1C(=O)N[C@@H](C)C(=O)N[C@@H](CCCCN)C(=O)N[C@@H](CO)C(=O)N[C@H](CC(N)=O)Cc1ccccc1)[C@@H](C)CC` the IC50 was 43.3 µg/mL (NIH 3T3; cytotoxicity).
`CC(=O)N[C@@H](CCCNC(=N)N)C(=O)N[C@@H](Cc1c[nH]c2ccccc12)C(=O)N[C@@H](CCCNC(=N)N)C(=O)N[C@@H](Cc1c[nH]c2ccccc12)C(=O)N[C@@H](CCCNC(=N)N)C(=O)N[C@@H](Cc1c[nH]c2ccccc12)C(N)=O` has an IC50 of > 100 µM (MCF-10A; cell viability; 48 h, dark).
`CC#CC#C/C=C1/O[C@]2(CC[C@H](OC(C)=O)CO2)[C@@H](O)[C@@H]1OC(=O)CC(C)C` (stereo in doubt) has an IC50 of 26 µM (RAW264.7; NO release, inhibitor, Griess; LPS-stimulated).
`Cc1ccc([N+](=O)[O-])cc1S(=O)(=O)N(C)/N=C/c1cnc2ccc(Br)cn12` has an IC50 of 1.5 µM (NCI-H322M; cell growth or viability).
`CN1CC[C@@H](COc2cnc(C#N)cc2-c2ccn3nc(NC(=O)C4CC4)cc3c2)C1` gave an IC50 of 0.78 µM (dendritic cells, mouse, bone marrow-derived; cytokine release, item: TNF; added: LPS).
For `CC(=O)OC1CCC2(OC1)OC(=CC#CC#CCO)C(OC(=O)CC(C)C)C2O` (stereo not shown), the IC50 was > 50 µM (RAW264.7; NO release, inhibitor, Griess; LPS-stimulated).
With `COC(=O)N1c2ccc3c(nc(Cc4ccccc4)n3[C@@H]3CCC[C@@H](C(=O)O)C3)c2CC[C@@H]1C` the IC50 was 0.59 µM (CAMA-1; cell growth or viability, ATP luminescence; 10 days).
The IC50 of `O=C(c1cc(Cc2n[nH]c(=O)c3ccccc23)ccc1F)N1CCN(C(=O)C2CC2)CC1` is reported as > 100 µM (DLD-1; cell growth or viability).
With `O=C(OCc1ccc(O[C@@H]2O[C@H](COC(=O)c3ccc(O)cc3)[C@@H](O)[C@H](O)[C@H]2O)cc1)c1ccc(O)cc1` the IC50 was > 200 µM (MDA-MB-231 breast cancer; cell viability, MTT; DMEM with 10% FBS; 48 h).

A few entries again:
With `NCc1ccc2c(c1)CN(C1CCC(=O)NC1=O)C2=O` (stereo not shown) the IC50 was 0.0733 µM and < 0.1 µM (Hep3B; cell growth or viability, ATP luminescence; 72 h).
For `CC(=O)OC[C@H]1O[C@@H](Oc2ccc(C#[C][Pt+])cc2)[C@H](OC(C)=O)[C@@H](OC(C)=O)[C@@H]1OC(C)=O.O=S(=O)([O-])C(F)(F)F.c1ccc(-c2cccc(-c3ccccn3)n2)nc1`, the IC50 was > 100 µM (PLC; cell growth or viability; 48 h).
`CC[C@H](C)[C@H](NC(=O)[C@H](CCCCN)NC(=O)C[C@H](Cc1ccccc1)NC(=O)[C@H](CC(C)C)NC(=O)CN)C(=O)N[C@H](CC(=O)N[C@@H](CCCCN)C(=O)N[C@@H](CCCCN)C(=O)N[C@H](CC(=O)N[C@@H](CC(C)C)C(=O)N[C@@H](CCCCN)C(=O)N[C@@H](CO)CC(=O)N[C@@H](Cc1ccccc1)C(N)=O)[C@@H](C)CC)[C@@H](C)CC` gave an IC50 of 17.9 µg/mL (NIH 3T3; cytotoxicity).
With `CCn1cc(-c2cccc(C(F)(F)F)c2)c2sc(C(=N)NC3CCS(=O)(=O)CC3)cc2c1=O` the IC50 was 6.25 µM (EOL1; cell growth or viability, ATP luminescence).
`CCNC(=S)NN=Cc1c2ccccc2cc2ccccc12.Cc1ccc(C(C)C)cc1.[Cl-].[Cl-].[Ru+2]` has an IC50 of 235 ± 6 µM (Caco-2; cytotoxicity, MTS; 48 h).
